# Measurements of several laboratories.
# Compare with care: the assays were run in different laboratories. Numbers after ± are the reported error.
Structure (SMILES),test,system,setting,scale,endpoint,value
CCCC[C@H](NC(=O)[C@H](Cc1cccs1)NC(=O)[C@H](Cc1c[nH]cn1)NC(=O)CCNC(=O)[C@@H](NC(=O)[C@H](C)NC(=O)[C@H](Cc1c[nH]c2ccccc12)NC(=O)[C@H](CCC(N)=O)NC(=O)[C@H](Cc1cccs1)NC(=O)CN1CCC(NC(=O)CN(CCN(CCN(CC(=O)O)CC(=O)O)CC(=O)O)CC(=O)O)CC1)C(C)C)C(N)=O [indium-111 labelled],,"Swiss nu/nu mouse, male, PC-3 tumour xenograft, colon","intravenous, 10 pmol, 1 h",,tissue uptake,2.5 ± 0.4 %ID/g
N=C(N)NCCC[C@@H]1NC(=O)[C@H](CCCCNC(=O)CCOCCOCCOCCOCCNC(=O)CN2CCN(CC(=O)O)CCN(CC(=O)O)CCN(CC(=O)O)CC2)NC(=O)[C@@H](Cc2ccccc2)NC(=O)[C@H](CC(=O)O)NC(=O)CNC1=O [indium-111 labelled],,"female athymic nude mice, liver","intravenous, 3 µCi, 1 h, U-87 MG glioma xenograft",,tissue uptake,1 ± 0.08 %ID/g
CSCC[C@H](NC(=O)[C@H](CC(C)C)NC(=O)CNC(=O)[C@H](Cc1ccccc1)NC(=O)[C@H](Cc1ccccc1)NC(=O)[C@H](CCC(N)=O)NC(=O)[C@H](CCC(N)=O)NC(=O)[C@@H]1CCCN1C(=O)[C@H](CCCCNC(=O)CCC1=[N+]2C(=Cc3c(C)cc(C)n3[B-]2(F)F)C=C1)NC(=O)[C@@H]1CCCN1C(=O)[C@@H](N)CCCNC(=N)N)C(N)=O,,PBS,"10 nM, pH 7.4",,emission maximum,510 nm
N=C(N)NCCC[C@@H]1NC(=O)[C@H](CCCCNC(=O)CC[C@H](NC(=O)CCOCCOCCOCCOCCNC(=O)CC[C@H](NC(=O)CN2CCN(CC(=O)O)CCN(CC(=O)O)CCN(CC(=O)O)CC2)C(=O)NCCOCCOCCOCCOCCC(=O)N[C@@H](CCC(=O)NCCCC[C@@H]2NC(=O)[C@@H](Cc3ccccc3)NC(=O)[C@H](CC(=O)O)NC(=O)CNC(=O)[C@H](CCCNC(=N)N)NC2=O)C(=O)NCCCC[C@@H]2NC(=O)[C@@H](Cc3ccccc3)NC(=O)[C@H](CC(=O)O)NC(=O)CNC(=O)[C@H](CCCNC(=N)N)NC2=O)C(=O)NCCCC[C@@H]2NC(=O)[C@@H](Cc3ccccc3)NC(=O)[C@H](CC(=O)O)NC(=O)CNC(=O)[C@H](CCCNC(=N)N)NC2=O)NC(=O)[C@@H](Cc2ccccc2)NC(=O)[C@H](CC(=O)O)NC(=O)CNC1=O [indium-111 labelled],planar imaging,"athymic nude mouse, U-87 MG xenograft, tumour",intravenous,,retention half-life,> 30 h
CSCC[C@H](NC(=O)[C@H](CC(C)C)NC(=O)[C@H](Cc1c[nH]cn1)NC(=O)CNC(=O)[C@@H](NC(=O)[C@H](C)NC(=O)[C@H](Cc1c[nH]c2ccccc12)NC(=O)[C@H](CCC(N)=O)NC(=O)CCCCCNC(=O)CN1CCN(CC(=O)O)CCN(CC(=O)O)CC1)C(C)C)C(N)=O [gallium-68 labelled],microPET imaging,"nude mouse PC-3 xenograft, PC-3 tumour","intravenous, 3.7 MBq, 15 min",,mean tumour uptake,4.4 ± 0.29 %ID/g
N=C(N)NCCC[C@@H]1NC(=O)[C@H](CCCCNC(=O)CCOCCOCCOCCOCCNC(=O)CC[C@H](NC(=O)CCOCCOCCOCCOCCNC(=O)CC[C@H](NC(=O)CN2CCN(CC(=O)O)CCN(CC(=O)O)CCN(CC(=O)O)CC2)C(=O)NCCOCCOCCOCCOCCC(=O)N[C@@H](CCC(=O)NCCOCCOCCOCCOCCC(=O)NCCCC[C@@H]2NC(=O)[C@@H](Cc3ccccc3)NC(=O)[C@H](CC(=O)O)NC(=O)CNC(=O)[C@H](CCCNC(=N)N)NC2=O)C(=O)NCCOCCOCCOCCOCCC(=O)NCCCC[C@@H]2NC(=O)[C@@H](Cc3ccccc3)NC(=O)[C@H](CC(=O)O)NC(=O)CNC(=O)[C@H](CCCNC(=N)N)NC2=O)C(=O)NCCOCCOCCOCCOCCC(=O)NCCCC[C@@H]2NC(=O)[C@@H](Cc3ccccc3)NC(=O)[C@H](CC(=O)O)NC(=O)CNC(=O)[C@H](CCCNC(=N)N)NC2=O)NC(=O)[C@@H](Cc2ccccc2)NC(=O)[C@H](CC(=O)O)NC(=O)CNC1=O [indium-111 labelled],,"athymic nude mice, female, U-87 MG glioma xenograft, tumour and liver","intravenous, 24 h",baseline: tumour over liver,tumour to tissue ratio,3.24 ± 1.02
CCCC[C@H](NC(=O)CCCCCCCNC(=O)c1ccc(NN)nc1)C(=O)N[C@H]1CC(=O)NCCCC[C@@H](C(N)=O)NC(=O)[C@H](Cc2c[nH]c3ccccc23)NC(=O)[C@H](CCCNC(=N)N)NC(=O)[C@@H](Cc2ccccc2)NC(=O)[C@H](Cc2c[nH]cn2)NC1=O [technetium-99m labelled],,"C57 mouse, B16/F1 melanoma, skin","intravenous, 4 h",,uptake,0.37 ± 0.11 %ID/g
N=C(N)NCCC[C@@H]1NC(=O)[C@H](CCCCNC(=O)CCOCCOCCOCCOCCNC(=O)CC[C@H](NC(=O)CCOCCOCCOCCOCCNC(=O)[C@H](CCCCNC(=O)c2ccc(NN)nc2)NC(=O)c2ccc(NN)nc2)C(=O)NCCOCCOCCOCCOCCC(=O)NCCCC[C@@H]2NC(=O)[C@@H](Cc3ccccc3)NC(=O)[C@H](CC(=O)O)NC(=O)CNC(=O)[C@H](CCCNC(=N)N)NC2=O)NC(=O)[C@@H](Cc2ccccc2)NC(=O)[C@H](CC(=O)O)NC(=O)CNC1=O [technetium-99m labelled],,female athymic nude mice,"intravenous, 1 h, U-87 MG glioma xenograft",baseline: tumour over blood,tissue ratio,15.9 ± 2.87
CCCC[C@H](NC(=O)CNC(=O)CNC(=O)c1ccc(NN)nc1)C(=O)N[C@H]1CC(=O)NCCCC[C@@H](C(N)=O)NC(=O)[C@H](Cc2c[nH]c3ccccc23)NC(=O)[C@H](CCCNC(=N)N)NC(=O)[C@@H](Cc2ccccc2)NC(=O)[C@H](Cc2c[nH]cn2)NC1=O [technetium-99m labelled],,"C57 mouse, B16/F1 melanoma-bearing","intravenous, 24 h",baseline: tumour over blood,tissue uptake ratio,151
CC(=O)O[C@H]1C(=O)[C@@]2(C)[C@H]([C@H](OC(=O)c3ccccc3)[C@]3(O)C[C@H](OC(=O)[C@H](OC(=O)Cc4ccccc4SSCCC(=O)NCCOCCOCCNC(=O)CCC(=O)NCC(=O)NCC(=O)N[C@@H](CCCCN)C(=O)N[C@H](C(=O)N[C@@H](CCCCN)C(=O)N[C@H](C(=O)N[C@@H](CCCCN)C(=O)N[C@H](C(=O)N[C@@H](CCCCN)C(=O)N[C@H](C(=O)N4CCC[C@@H]4C(=O)N4CCC[C@H]4C(=O)N[C@H](C(=O)N[C@@H](CCCCN)C(=O)N[C@H](C(=O)N[C@@H](CCCCN)C(=O)N[C@H](C(=O)N[C@@H](CCCCN)C(=O)N[C@H](C(=O)N[C@@H](CCCCN)C(N)=O)C(C)C)C(C)C)C(C)C)[C@@H](C)O)C(C)C)C(C)C)C(C)C)C(C)C)[C@@H](NC(=O)c4ccccc4)c4ccccc4)C(C)=C1C3(C)C)[C@]1(OC(C)=O)CO[C@@H]1C[C@@H]2O,,HEPES buffer,"5 min, pH 7.4, 37 °C, together with: glutathione 5 mM",,paclitaxel release,73%

# A few entries again:
Structure (SMILES),test,system,setting,scale,endpoint,value
N=C(N)NCCC[C@@H]1NC(=O)[C@H](CCCCNC(=O)CCOCCOCCOCCOCCNC(=O)CC[C@H](NC(=O)CCOCCOCCOCCOCCNC(=O)CC[C@H](NC(=O)CN2CCN(CC(=O)O)CCN(CC(=O)O)CCN(CC(=O)O)CC2)C(=O)NCCOCCOCCOCCOCCC(=O)N[C@@H](CCC(=O)NCCOCCOCCOCCOCCC(=O)NCCCC[C@@H]2NC(=O)[C@@H](Cc3ccccc3)NC(=O)[C@H](CC(=O)O)NC(=O)CNC(=O)[C@H](CCCNC(=N)N)NC2=O)C(=O)NCCOCCOCCOCCOCCC(=O)NCCCC[C@@H]2NC(=O)[C@@H](Cc3ccccc3)NC(=O)[C@H](CC(=O)O)NC(=O)CNC(=O)[C@H](CCCNC(=N)N)NC2=O)C(=O)NCCOCCOCCOCCOCCC(=O)NCCCC[C@@H]2NC(=O)[C@@H](Cc3ccccc3)NC(=O)[C@H](CC(=O)O)NC(=O)CNC(=O)[C@H](CCCNC(=N)N)NC2=O)NC(=O)[C@@H](Cc2ccccc2)NC(=O)[C@H](CC(=O)O)NC(=O)CNC1=O [indium-111 labelled],,"athymic nude mice, female, U-87 MG glioma xenograft, tumour and liver","intravenous, 24 h",baseline: tumour over liver,tumour to tissue ratio,3.24 ± 1.02
